Measurements gathered from unrelated publications.
Each numbered part is a random draw from the data of one study; scales do not carry over between parts.
Chain of UniProt Q56UN5 (whole entry, looked up): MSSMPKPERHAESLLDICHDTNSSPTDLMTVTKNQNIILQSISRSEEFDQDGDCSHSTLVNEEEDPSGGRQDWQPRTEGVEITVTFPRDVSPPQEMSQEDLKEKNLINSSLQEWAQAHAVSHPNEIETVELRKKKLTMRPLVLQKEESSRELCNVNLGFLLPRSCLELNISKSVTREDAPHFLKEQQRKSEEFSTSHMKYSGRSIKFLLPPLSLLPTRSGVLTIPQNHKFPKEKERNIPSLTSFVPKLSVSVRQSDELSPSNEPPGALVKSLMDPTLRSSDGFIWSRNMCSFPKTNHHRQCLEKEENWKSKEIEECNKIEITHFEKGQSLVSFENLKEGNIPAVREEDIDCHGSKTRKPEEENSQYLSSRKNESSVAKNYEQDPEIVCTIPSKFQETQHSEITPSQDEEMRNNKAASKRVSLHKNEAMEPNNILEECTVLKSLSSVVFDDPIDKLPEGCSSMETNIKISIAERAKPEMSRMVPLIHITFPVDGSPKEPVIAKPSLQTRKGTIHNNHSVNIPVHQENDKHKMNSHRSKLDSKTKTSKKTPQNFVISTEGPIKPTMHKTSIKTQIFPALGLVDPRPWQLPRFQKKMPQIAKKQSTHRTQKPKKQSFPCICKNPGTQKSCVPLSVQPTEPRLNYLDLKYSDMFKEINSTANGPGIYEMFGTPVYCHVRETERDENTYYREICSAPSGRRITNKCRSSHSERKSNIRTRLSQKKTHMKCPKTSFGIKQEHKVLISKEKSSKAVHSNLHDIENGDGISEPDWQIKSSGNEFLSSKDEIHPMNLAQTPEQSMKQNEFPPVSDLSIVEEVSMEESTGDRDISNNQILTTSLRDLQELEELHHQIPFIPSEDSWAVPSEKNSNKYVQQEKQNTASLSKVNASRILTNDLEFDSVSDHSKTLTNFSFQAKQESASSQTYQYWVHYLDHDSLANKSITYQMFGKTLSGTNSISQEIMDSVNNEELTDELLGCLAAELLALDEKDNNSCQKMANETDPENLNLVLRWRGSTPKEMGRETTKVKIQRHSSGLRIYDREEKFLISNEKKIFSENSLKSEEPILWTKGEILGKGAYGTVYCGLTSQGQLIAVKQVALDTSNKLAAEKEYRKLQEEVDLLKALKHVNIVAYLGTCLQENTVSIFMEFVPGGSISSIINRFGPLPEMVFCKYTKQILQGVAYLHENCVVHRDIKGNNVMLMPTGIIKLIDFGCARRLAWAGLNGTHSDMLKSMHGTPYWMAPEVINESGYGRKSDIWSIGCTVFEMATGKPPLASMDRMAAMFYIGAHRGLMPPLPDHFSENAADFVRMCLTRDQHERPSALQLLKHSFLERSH
Chain of UniProt O00238 (whole entry, looked up): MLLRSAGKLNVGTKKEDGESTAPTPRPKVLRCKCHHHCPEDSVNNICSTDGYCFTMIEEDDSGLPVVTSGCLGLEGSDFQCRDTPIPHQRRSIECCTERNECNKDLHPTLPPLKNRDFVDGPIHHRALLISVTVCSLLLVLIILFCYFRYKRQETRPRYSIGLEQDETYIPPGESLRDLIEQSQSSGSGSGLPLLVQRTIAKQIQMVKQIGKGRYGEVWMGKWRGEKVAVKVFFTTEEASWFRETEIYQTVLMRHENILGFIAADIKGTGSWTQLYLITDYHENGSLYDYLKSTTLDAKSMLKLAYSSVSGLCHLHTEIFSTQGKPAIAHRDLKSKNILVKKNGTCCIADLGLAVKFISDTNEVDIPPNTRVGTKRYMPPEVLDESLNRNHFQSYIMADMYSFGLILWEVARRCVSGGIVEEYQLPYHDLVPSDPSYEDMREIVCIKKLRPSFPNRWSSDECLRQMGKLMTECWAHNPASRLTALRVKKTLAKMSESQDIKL

Sample 1
Target: Serine/threonine-protein kinase 4 (STK4, Homo sapiens, UniProt Q13043)
Effect on: enzyme activity
Mode: inhibitor
Tested at: 0.5 µM
Reference: control
Quantity: remaining activity
Target sequence (Q13043 1-487): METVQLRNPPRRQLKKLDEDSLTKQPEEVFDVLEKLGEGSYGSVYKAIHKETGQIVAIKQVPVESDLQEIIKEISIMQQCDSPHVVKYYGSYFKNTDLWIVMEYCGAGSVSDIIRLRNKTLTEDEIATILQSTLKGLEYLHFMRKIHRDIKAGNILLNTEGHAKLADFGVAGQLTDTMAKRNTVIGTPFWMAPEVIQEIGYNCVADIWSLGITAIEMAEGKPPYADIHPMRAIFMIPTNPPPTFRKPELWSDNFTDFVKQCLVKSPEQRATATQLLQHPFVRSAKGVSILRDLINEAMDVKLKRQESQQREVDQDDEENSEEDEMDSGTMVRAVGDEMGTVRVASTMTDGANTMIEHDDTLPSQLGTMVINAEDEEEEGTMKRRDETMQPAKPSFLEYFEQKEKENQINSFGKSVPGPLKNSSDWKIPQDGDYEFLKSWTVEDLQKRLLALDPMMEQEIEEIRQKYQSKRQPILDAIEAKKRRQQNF
O=c1c2ccccc2[nH]c(=S)n1CCN1CCC(=C(c2ccc(F)cc2)c2ccc(F)cc2)CC1: 103%
NCCNc1ncc(C(N)=O)c(Nc2cccc(C(F)(F)F)c2)n1: 65.2%
COc1cc2ncnc(Nc3ccc(Oc4ccccc4)cc3)c2cc1OC: 107%
Nc1[nH]nc2nc3ccccc3nc12: 94.5%
O=C(CCCc1ccc(-c2ccccc2F)cc1)Nc1ccc(O)cc1: 95%
Nc1ccc2ncnc(NCCc3ccc(Oc4ccccc4)cc3)c2c1: 95.8%
Cn1sc(=O)n(Cc2ccccc2)c1=O: 107%
COc1ccc(OC)c2c(=S)c3ccccc3[nH]c12: 96.8%
C#Cc1cccc(Nc2ncnc3cc(OCCOC)c(OCCOC)cc23)c1: 97.4%
Nc1ncnc2n[nH]c(Nc3ccc(F)cc3)c12: 90.4%
COc1ccc(CNC(=O)Nc2ncc([N+](=O)[O-])s2)cc1: 99.8%
CCOC(=O)c1c(C)[nH]c(/C=C2\C(=O)Nc3ccccc32)c1C: 83.4%
N#CC(C#N)=C(N)/C(C#N)=C/c1ccc(O)cc1: 99.1%
CO[C@H]1C[C@@H]2CC[C@@H](C)[C@@](O)(O2)C(=O)C(=O)N2CCCC[C@H]2C(=O)O[C@H]([C@H](C)C[C@@H]2CC[C@@H](O)[C@H](OC)C2)CC(=O)[C@H](C)/C=C(\C)[C@@H](O)[C@@H](OC)C(=O)[C@H](C)C[C@H](C)/C=C/C=C/C=C/1C: 106%
CC(C)[C@H](CO)Nc1nc(Nc2cc(N)cc(Cl)c2)c2ncn(C(C)C)c2n1: 63.6%
Cc1ccc(NC(=O)c2ccc(CN3CCN(C)CC3)cc2)cc1Nc1nc(-c2cccnc2)cs1: 101%

Sample 2
SMILES: O=C(Nc1cccnn1)N1CC(C/C=C/c2cncc(Oc3ccc(C(F)(F)F)cn3)n2)C1
Effect on: cell-free assay
Method: competition with immobilised ligand
Tested at: 1 µM
Quantity: remaining binding
Receptor-type tyrosine-protein kinase FLT3, autoinhibited (FLT3, Homo sapiens, UniProt P36888): 86%
MAP3K19 (Homo sapiens, UniProt Q56UN5): 90%
BMPR1B (Homo sapiens, UniProt O00238): 91%

Sample 3
Target: Ras GTPase-activating protein-binding protein 1, full length (G3BP1, Homo sapiens, UniProt Q13283)
Chain of UniProt Q13283 (whole entry, looked up): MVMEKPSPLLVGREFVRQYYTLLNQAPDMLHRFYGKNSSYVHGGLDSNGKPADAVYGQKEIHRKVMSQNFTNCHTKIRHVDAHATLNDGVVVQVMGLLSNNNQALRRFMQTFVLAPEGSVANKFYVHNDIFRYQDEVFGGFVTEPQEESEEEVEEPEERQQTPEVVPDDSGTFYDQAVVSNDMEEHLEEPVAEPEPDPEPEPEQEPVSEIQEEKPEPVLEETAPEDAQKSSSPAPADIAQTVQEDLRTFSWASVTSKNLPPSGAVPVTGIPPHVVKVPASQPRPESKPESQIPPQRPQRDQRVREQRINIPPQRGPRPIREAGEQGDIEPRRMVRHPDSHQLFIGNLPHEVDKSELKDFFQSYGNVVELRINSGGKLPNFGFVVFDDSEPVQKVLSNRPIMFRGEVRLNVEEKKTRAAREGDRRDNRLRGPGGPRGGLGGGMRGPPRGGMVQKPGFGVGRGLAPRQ
Method: RNA Bind-n-Seq
Molecule type: RNA
Matrix: in vitro
Tested at: 200 nM
Setting: whole 134-nt RNA, ends assumed
With: 150 mM LiCl
Reference: input library
Direction: higher = stronger binding
Quantity: log2 enrichment
All molecules: 7-deaza-guanosine replaces G
Constant ends, left off below: GGGAGUUCUACAGUCCGACGAUC … UGGAAUUCUCGGGUGUCAAGG
GCAGGAAGUAAAAACAAAUGGAAAUGCUUCGUAUAGUGGCAGGGGUGGGGGUUGCUAAGGAAAGGGUGGGAUGGGAGUGGGUAAAGAGUU: 0.125
CUGUGCUACACAUCGUAUGUACCGAAUCGGAAAAAAAGGGGAAAAAAAGGGGAAAAAAAGGGAAAGUAUUAUGUUACGCCGUUCGGAUCU: 0.187
CACAGACAACACGCACCCACACAGACACAGAGGGAAGGGGUUGGGAUGGGGACAGGGUGCACAGCAGGGCGGGGUAGGUCCCCAGCCCCU: 1.27
UCAAGUCCUGUGCUACACAUCGUAUGUACCGAAUCGUGUGUGUGUGUGUGUGUGUAAAGUAUUAUGUUACGCCGUUCGGAUCUGCACUUC: -0.748
UUCACCAGUUUCACUGUGAGCCUCAACGAGCUGGAGACAGGCAUGGAGAAGACCCUGCCACCCACGGACUGCCGCCUGCGCCCUGACAUC: 1.55
CCUGUGCUACACAUCGUAUGUACCGAAUCGGGGUUUGGGGAAAAAAAGGGGAAAAAGGGGAAAGUAUUAUGUUACGCCGUUCGGAUCUGC: 0.311
CACAGACAACACGCACCCACACAGACACAGAGGGACGGGGUUGGGAUGGGGACAGGGUGCACAGCAGGGCGGGGUAGGACCCCAGCCCCU: -1.39
UUCAGGAUGAAGAUGCAUCAGGGGGCGAUCAAGAUCAGGAAGAAAGAAGAUGGAACAAAAGGACUCAGCAGAUGCUUCAUGGUCUUCAGG: -2.3

Sample 4
Target: Protein C-ets-1, full length (ETS1, Homo sapiens, UniProt P14921, residues 1-441)
Method: protein-binding microarray
Molecule type: hairpin DNA
Matrix: in vitro
Tested at: not given
Setting: whole hairpin DNA, median over replicate spots
Reference: not given
Direction: higher = stronger binding
Quantity: median fluorescence
Construct (chain): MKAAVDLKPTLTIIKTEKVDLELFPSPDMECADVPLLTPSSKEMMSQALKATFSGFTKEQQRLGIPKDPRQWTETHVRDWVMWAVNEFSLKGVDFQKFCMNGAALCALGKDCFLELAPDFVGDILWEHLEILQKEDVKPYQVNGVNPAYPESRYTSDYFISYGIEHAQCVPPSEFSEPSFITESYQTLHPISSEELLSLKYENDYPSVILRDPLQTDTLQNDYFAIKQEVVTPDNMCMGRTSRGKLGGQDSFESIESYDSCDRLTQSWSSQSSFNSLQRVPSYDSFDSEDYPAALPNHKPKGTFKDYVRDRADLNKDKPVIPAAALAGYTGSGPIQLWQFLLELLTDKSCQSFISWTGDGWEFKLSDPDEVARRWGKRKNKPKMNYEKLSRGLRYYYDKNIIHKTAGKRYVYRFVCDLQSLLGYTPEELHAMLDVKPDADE
GAGGCCGGTCGGAAGTTGCCTCCTGGCAACTTCCGACCGGCCTCACACTC (5mC at 38): 2300 a.u.
GAGGCCAGTCGGAGGTTGCCTCCTGGCAACCTCCGACTGGCCTCACACTC (5mC at 31): 764 a.u.
GAGGCCAGTCGCAAGTTGCCTCCTGGCAACTTGCGACTGGCCTCACACTC: 520 a.u.
GAGGCCAGTCGGAACTTGCCTCCTGGCAAGTTCCGACTGGCCTCACACTC (5mC at 15): 700 a.u.
GAGGCCAGCCGGACGTTGCCTCCTGGCAACGTCCGGCTGGCCTCACACTC (5mC at 30): 2240 a.u.
GAGGCCAGCCGGAAGCGGCCTCCTGGCCGCTTCCGGCTGGCCTCACACTC (5mC at 28): 5730 a.u.
GAGGCCAGTCGTAAGTTGCCTCCTGGCAACTTACGACTGGCCTCACACTC: 552 a.u.
GAGGCCATCCGGAAGTTGCCTCCTGGCAACTTCCGGATGGCCTCACACTC: 8710 a.u.

Other studies, line by line
CCCCCOC(=O)Nc1nc(=O)n([C@@H]2O[C@H](C)[C@@H](O)[C@H]2O)cc1F — viability (A-375; 100 µM, 18 h): 112%
medroxyprogesterone — inhibition (Sarcocystis neurona; parasite growth; 10 µM, first screen): 20.7%
N=C(N)N — viability (A-375; 100 µM, 18 h): 93%
CCC[C@H](NC(=O)[C@@H]1[C@H]2CCC[C@H]2CN1C(=O)[C@@H](NC(=O)[C@@H](NC(=O)c1cnccn1)C1CCCCC1)C(C)(C)C)C(=O)C(=O)NC1CC1 — viability (HaCaT; 100 µM, 36 h): 24.4%
